Experimental data collected from several papers.
Numbered parts are unrelated; each lists some results of a single study. Positions count from the first letter of the parent shown.

Set 1 — observed: peptide-MHC binding; form: peptide; tested at: concentration not given
Target: HLA class I histocompatibility antigen, A alpha chain, allele A*25:01 (Homo sapiens, UniProt P04439)
Molecule | binding
LTAPCDIYV | inactive
KSWLVHWSL | inactive
ERTDLFFPV | inactive
KLWASFFQG | inactive
APDGFYPFK | inactive
SYMLQGLRK | inactive
LPRERFRKT | inactive
YSTVRDLFL | inactive

Set 2 — target: CCNE1, cyclin fold, Cln2 fusion (human); method: yeast growth competition, sequencing; matrix: yeast; notes: strong parent motif; reference: not given; reading: higher = stronger binding
Starting sequence: viral docking peptide; YKVKRRLVFGADD; partner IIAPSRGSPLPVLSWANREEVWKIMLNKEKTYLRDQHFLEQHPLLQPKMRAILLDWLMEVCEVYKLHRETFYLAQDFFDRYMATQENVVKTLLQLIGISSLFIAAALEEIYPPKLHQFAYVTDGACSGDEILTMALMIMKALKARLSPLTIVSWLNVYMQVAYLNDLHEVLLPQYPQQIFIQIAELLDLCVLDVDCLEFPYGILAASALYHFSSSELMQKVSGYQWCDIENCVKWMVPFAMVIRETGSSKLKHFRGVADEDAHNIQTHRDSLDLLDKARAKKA
Substitution | normalised enrichment score
L7F | 0.584
R5P | -0.0026
K4W | 1.04
A11V | 5.95
V3H | 2.05
V8R | 3.9
L7P | -0.047
R5F | 0.293

Set 3 — target: UBE2W UBC core domain (UniProt Q96B02); method: yeast two-hybrid; matrix: yeast; notes: mostly zero background; reference: not given; reading: higher = stronger interaction
B1: MKRN3 RING domain (UniProt Q13064); chain FAVQRGMDKVCGICMEVVYEKANPNDRRFGILSNCNHSFCIRCIRRWRSARQFENRIVKSCPQCRVTSELVIPSE
B2: RNF182 RING domain (UniProt Q8N6D2); chain AESQASDELECKICYNRYNLKQRKPKVLECCHRVCAKCLYKIIDFGDSPQGVIVCPFCRFETCLPDDEV
B3: HLTF RING domain (UniProt Q14527); chain LILSSGSDEECAICLDSLTVPVITHCAHVFCKPCICQVIQNEQPHAKCPLCRNDIHEDNLLE
B4: RUFY1 RING domain (UniProt Q96T51); chain QALKGHAWLKDDEATHCRQCEKEFSISRRKHHCRNCGHIFCNTCSSNELALPSYPKPVRVCDSCHTLLLQRCSSTAS
Target sequence (chain): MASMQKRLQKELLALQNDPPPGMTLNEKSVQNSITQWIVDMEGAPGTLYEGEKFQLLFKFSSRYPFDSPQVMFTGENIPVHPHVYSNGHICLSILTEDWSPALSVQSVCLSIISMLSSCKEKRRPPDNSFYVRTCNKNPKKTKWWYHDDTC
Molecule | lacZ reporter activity
B1 (MKRN3 RING domain) | 0
B2 (RNF182 RING domain) | 0
FAEQPSVKLCCQLCCSVFKDPVITTCGHTFCRRCALKSEKCPVDNVKLTVVVNNI (TRAF7 RING domain (UniProt Q6Q0C0)) | 0
ASPKIFQKTKCSICNSALELPSVHFLCGHSFHQHCFESYSESDADCPTCLPENRKVMDMI (VPS11 RING domain (UniProt Q9H270)) | 0
FDPPLESKYECPICLMALREAVQTPCGHRFCKACIIKSIRDAGHKCPVDNEILLENQLFP (TRAF6 RING domain (UniProt Q9Y4K3)) | 0
EIKEYKARLTCPCCNTRKKDAVLTKCFHVFCFECVRGRYEARQRKCPKCNAAFGAHDFHR (RNF40 RING domain (UniProt O75150)) | 0
B3 (HLTF RING domain) | 0
B4 (RUFY1 RING domain) | 0

Single results of other studies
Compound | organism | assay | setting | scale | endpoint | value
NC(=O)OCCCc1ccccc1 | Sarcocystis neurona | parasite growth | 10 µM, 96 h, second screen | reference: untreated | log2 fold change | 0.12

Excerpt of the above (set 2):
Substitution | normalised enrichment score
A11V | 5.95
V3H | 2.05
V8R | 3.9
L7P | -0.047
